Published values gathered from unrelated publications.
Each line is one published result; not all experiments were run side by side. ± gives the spread as reported.
Chrnd/Chrna1/Chrne: Chrnd/Chrna1/Chrne (Mus musculus, UniProt P02716+P04756+P20782)
blaNDM-1: Metallo-beta-lactamase type 2 (blaNDM-1, Klebsiella pneumoniae, UniProt C7C422)

SMILES	target	test	system	conditions	how to read	quantity	value
CCN(CC)CCCC[C@H](NC(=O)[C@H](CC(C)C)NC(=O)[C@H](C)NC(=O)[C@H](Cc1ccccc1)NC(=O)c1ccc(C(C)(C)C)cc1)C(=O)N[C@@H](CO)C(=O)OC	Muscarinic acetylcholine receptor M1 (CHRM1, Homo sapiens, UniProt P11229)	antagonist, radioligand binding		10 µM	baseline: control binding	specific binding	99%
CO[P@@](=O)(Oc1ccccc1)Oc1ccc([N+](=O)[O-])cc1	had (Sphingobium sp. TCM1, UniProt A0A077JBW9)					Km	380 ± 40 µM
COc1ccc(N2C(=O)N(c3c(C)cccc3Cl)Cc3cnc(Nc4ccc(C5CCN(C)CC5)cc4OC)nc32)nc1	SRSF protein kinase 1 (SRPK1, Homo sapiens, UniProt Q96SB4)	kinase activity		0.5 µM		inhibition	1.56%
C[n+]1ccc(-c2ccccc2)cc1	Synaptic vesicular amine transporter (SLC18A2, Homo sapiens, UniProt Q05940)	substrate, [3H] uptake	HEK293 expressing VMAT2, isolated vesicles			reserpine-sensitive uptake	1390 fmol/µg protein
CC[C@H](C)[C@H](NC(=O)[C@@H](NC(=O)[C@H](CC(C)C)NC(=O)[C@H](CC(N)=O)NC(=O)[C@H](CC(=O)O)NC(=O)[C@H](CCC(=O)O)NC(=O)[C@@H](NC(=O)[C@@H](N)CCCNC(=N)N)[C@@H](C)CC)C(C)C)C(=O)N[C@H](C(=O)N[C@@H](CCCNC(=N)N)C(=O)O)[C@@H](C)CC	Epithelial sodium channel subunit alpha (Homo sapiens, UniProt P37088)	binding, bio-layer interferometry				kon	42.3 M⁻¹ s⁻¹
N#C[C@@]12C[C@@H]1[C@@H](n1cnc3c(NC4CCCC4)nc(I)nc31)[C@H](O)[C@@H]2O	5-hydroxytryptamine receptor 2B (Rattus norvegicus, UniProt P30994)	antagonist, Gq dissociation BRET		concentration not given	baseline: human over rat receptor	affinity reduction	~10 fold
O=c1c2ccccc2oc2cc(OCCCCc3ccccc3)ccc12	Acetylcholinesterase (ache, Electrophorus electricus, UniProt O42275)	enzyme activity		2.91 µM, added: substrate 0.86 mM	higher = faster reaction	reaction velocity	0.0008 a.u.
NC[C@H](NC(=O)c1ccc(-c2ccc(Br)cc2)cc1)C(=O)NO	UDP-3-O-acyl-N-acetylglucosamine deacetylase (Pseudomonas aeruginosa, UniProt P47205, C40S)	ITC		concentration not given, 298 K		ΔS of binding	0.143 kJ/(mol·K)
CN1CCN(c2cc(-c3ccncc3)c(-c3ccc4ccccc4c3)nn2)CC1	Oxytocin receptor (OXTR, Homo sapiens, UniProt P30559)	antagonist, FLIPR		10 µM		inhibition	-8.8%
c1cncc([C@@H]2CCCN2)c1	Chrnd/Chrna1/Chrne	single-channel kinetics		wild-type receptor		resting-state kon	1.77e+08 M⁻¹ s⁻¹
CC12CCC(CC1)C(C)(C)O2	1,8-cineole 2-endo-monooxygenase (cinA, Citrobacter braakii, UniProt Q8VQF6, N242A)	product per NADPH consumed, substrate, GC-MS		N242A enzyme variant		coupling efficiency	36.4%
C[C@H](CS)C(=O)N1CCC[C@H]1C(=O)O	blaNDM-1	enzyme activity, inhibitor				Hill coefficient	0.58 ± 0.03
O=C(O)COP(=O)(O)O	TPI1 (Saccharomyces cerevisiae, UniProt P00942, Y208T)	enzyme activity, competitive inhibitor, GPDH/NADH-coupled		pH 8.9, 25 °C, ionic strength 0.1 NaCl, added: glyceraldehyde 3-phosphate substrate	baseline: mutant over wild type	Ki ratio	8.6
COc1cc2nccc(Oc3ccc(NC(=O)c4cc5c(n(-c6ccccc6)c4=O)CCCC5=O)nc3)c2cc1OC	Platelet-derived growth factor receptor alpha (PDGFRA, Homo sapiens, UniProt P16234)	cell viability, CellTiter-Glo	Ba/F3 expressing recombinant kinase		baseline: PDGFRA IC50 over AXL IC50	selectivity ratio	41
O=P(O)(O)OC[C@H]1C[C@](O)(CO)[C@@H](O)[C@H](O)[C@@H]1O	valA (Streptomyces hygroscopicus, UniProt H2K887)	phosphate release		50 µM		apparent Vmax	2.8 ± 0.4 µM/min
C[C@H]1CN(c2n[nH]c3nc(N[C@H]4CC[C@H](NS(=O)(=O)CCC(F)(F)F)CC4)ncc23)CCO1	Inhibitor of nuclear factor kappa-B kinase subunit alpha (CHUK, Homo sapiens, UniProt O15111)	inhibitor, Kinobeads competition profiling		0.032 µM	baseline: vehicle	relative abundance	1.13
CNC(=O)[C@H]1[Se][C@@H](n2cnc3c(NCc4cccc(I)c4)ncnc32)[C@H](O)[C@@H]1O	Adenosine receptor A3 (ADORA3, Homo sapiens, UniProt P0DMS8)	radioligand binding			baseline: Ki A1 over Ki A3	selectivity ratio	≥ 800 fold
O=C(Nc1cnccc1Cl)N1CCN(Cc2ccc3c(c2)OC(F)(F)O3)CC1	central imidazoline I2 receptor, rat	binding		50 µM, added: [3H]idazoxan		inhibition	9%

SMILES	target	test	system	conditions	how to read	quantity	value
[2H]c1c([2H])c([C@]2([2H])CCCN2C(=O)C(C)(C)Oc2ccc3cn[nH]c3c2)c([2H])c([2H])c1C([2H])([2H])[2H]	Ribosomal protein S6 kinase alpha-3, N-terminal kinase domain (RPS6KA3, Homo sapiens, UniProt P51812)	KINOMEscan		1 µM	baseline: DMSO control	remaining binding	79%
Cc1nn(C)cc1-c1nc2c(N3CCN(Cc4ccc(Cl)cc4)CC3)c(Cl)cnc2[nH]1	Ankyrin repeat and protein kinase domain-containing protein 1 (ANKK1, Homo sapiens, UniProt Q8NFD2)	KINOMEscan		1 µM	baseline: DMSO control	remaining binding	89%
O=C1CC(C(=O)O)NC(=O)N1 (stereo not drawn)	Dihydroorotate dehydrogenase A (fumarate) (pyrDA, Lactococcus lactis subsp. cremoris, UniProt A2RJT9, L71F)	flavin reduction, stopped-flow	Lactococcus lactis	25 °C		kred	0.07 ± 0.001 s⁻¹
CC1(C)C(C=C(Cl)Cl)C1C(=O)OCc1cccc(Oc2ccccc2)c1 (stereo not drawn)	uncharacterized protein (Anopheles coluzzii, UniProt A0A6E8VQK1)	enzyme activity, inhibitor	Sf9 cell homogenate	24.7 µM, 0.1667 h, added: α-naphthyl acetate substrate	baseline: no inhibitor	remaining activity	96.7%
C[N+](C)(C)CCOC(N)=O	Chrnd/Chrna1/Chrne		mouse end plates	10 µM, unit not given	baseline: control	endplate depolarization response	0.132
CC(=C\C=C\C(C)=C\[C@H](O)[C@@H](O)C[C@H](C)O)/C=C(C)/C=C/C(=O)O[C@H]1CCCC(=O)O[C@@H]([C@@H](C)C/C(C)=C/[C@@H](C)[C@H](O)C[C@@H](C)O)C/C=C(\C)C[C@@H]1C	Protein transport protein Sec61 subunit alpha isoform 1 (Homo sapiens, UniProt P61619)	Sec61-dependent translocation, inhibitor, item: CD4 signal peptide-FLuc reporter	HEK293	concentration not given, 6 h	baseline: mock	FLuc/RLuc ratio	1.97
N.N.O=C([O-])C1(C(=O)[O-])CCC1.[Pt+2]	Voltage-dependent P/Q-type calcium channel subunit alpha-1A (Homo sapiens, UniProt O00555)	ion current, antagonist, automated patch clamp				IC30	> 30 µM
C/C=C1\C(=O)C[C@H]2[C@@H]3CCC4=CC(=O)CC[C@]4(C)[C@H]3CC[C@]12C	Nuclear receptor subfamily 1 group I member 3 (Homo sapiens, UniProt Q14994)			concentration not given		activity	inactive
CN(C(=O)n1cnc(-c2ccc[n+]([O-])c2)c1)C1CCCCC1	Beta-3 adrenergic receptor (ADRB3, Homo sapiens, UniProt P13945)	radioligand binding		10 µM		inhibition	4%
C[C@H](C(=O)N[C@H]1COc2ccccc2[C@@H]1S(C)(=O)=O)c1ccc(F)cc1	Metabotropic glutamate receptor 4 (GRM4, Homo sapiens, UniProt Q14833)	cAMP level, HTRF	human mGluR4 cells	concentration not given, concentration-response		activity	inactive
CC(CCn1ccc(-c2ccc(-c3cn(CC45CC(C4)C5)nn3)cc2)cc1=O)(C(=O)NO)S(C)(=O)=O (stereo not drawn)	UDP-3-O-acyl-N-acetylglucosamine deacetylase (Pseudomonas aeruginosa, UniProt P47205)	fluorescence		37 °C		residence time	~120 min
O=C(c1ccc(Cl)cc1)N1CCN2C(=O)N(OC(=O)N3CCOc4ccccc43)C(=O)C2C1 (stereo not drawn)	Lysosomal phospholipase A and acyltransferase (PLA2G15, Homo sapiens, UniProt Q8NCC3)	MS-based ABPP	SW-620 conditioned medium	10 µM, 1 h, 37 °C	baseline: compound over DMSO, lower = more inhibition	median protein ratio	1.12
C[N+](C)(C)CCOP(=O)(O)O	SAR11_0797 protein (Candidatus Pelagibacter ubique)	isothermal titration calorimetry		concentration not given		binding	no binding
CC[C@H](C)[C@H](NC(=O)CNC(=O)[C@@H](N)CCCCN)C(=O)N[C@@H](CC(C)C)C(=O)N[C@@H](CCCCN)C(=O)N[C@@H](CC(N)=O)C(=O)N[C@@H](CCCNC(=N)N)C(=O)N[C@@H](C)C(=O)N[C@@H](CCCNC(=N)N)C(=O)N[C@@H](CCCNC(=N)N)C(=O)N[C@@H](CCC(=O)O)C(=O)N[C@@H](CCCNC(=N)N)C(=O)N1CCC[C@H]1C(=O)NCC(=O)N[C@@H](CCCCN)C(=O)N[C@@H](CCCNC(=N)N)C(=O)N[C@@H](CCCCN)C(=O)N[C@H](C(=O)N[C@H](C(=O)N[C@H](C(=O)N[C@@H](Cc1c[nH]c2ccccc12)C(=O)N1CCC[C@H]1C(=O)N[C@@H](CCC(=O)O)C(=O)N[C@@H](CCC(=O)O)C(=O)NCC(=O)N[C@@H](CCCCN)C(=O)N[C@@H](CC(C)C)C(=O)N[C@@H](CCCNC(=N)N)C(=O)N[C@@H](CCC(=O)O)C(=O)N[C@@H](Cc1ccc(O)cc1)C(=O)N[C@@H](Cc1ccccc1)C(=O)N[C@@H](Cc1ccc(O)cc1)C(=O)N[C@@H](Cc1ccccc1)C(=O)N[C@@H](CCC(=O)O)C(=O)N[C@@H](CC(C)C)C(=O)N[C@@H](CC(=O)O)C(=O)N[C@@H](CCC(=O)O)C(=O)N[C@H](C(=O)N[C@@H](CCC(=O)O)C(=O)N[C@@H](CCCNC(=N)N)C(=O)N[C@H](C(=O)N[C@@H](CC(N)=O)C(=O)N[C@H](C(=O)O)C(C)C)C(C)C)[C@@H](C)O)[C@@H](C)O)C(C)C)[C@@H](C)O	Serine/threonine-protein phosphatase PP1-alpha catalytic subunit (PPP1CA, Homo sapiens, UniProt P62136)	binding, isothermal titration calorimetry		25 °C, PP1α residues 7-330		entropic term −TΔS	-20.3 ± 1.4 kcal/mol
Nc1ncnc2c1ncn2[C@@H]1O[C@H](COP(=O)(O)OP(=O)(O)OP(=O)(O)O)[C@@H](O)[C@H]1O	GTP 3',8-cyclase (moaA, Staphylococcus aureus, UniProt P69848)	competition with GTP				Hill slope	1.47 ± 0.164
O=C(O)c1cccc(C(=O)O)n1	blaNDM-1	enzyme activity, inhibitor		added: nitrocefin		kon	1330 ± 333 M⁻¹ s⁻¹
COC(=O)[C@@]1(O)C[C@H]2O[C@]1(C)n1c3ccccc3c3c4c(c5c6ccccc6n2c5c31)C(=O)NC4	Mitogen-activated protein kinase 3 (MAPK3, Homo sapiens, UniProt P27361)	ADP-Glo		1 µM, added: substrate MBP		remaining activity	111%
O=C(Nc1cccnn1)N1CCC(=Cc2cccc(Oc3ccc(C(F)(F)F)cn3)c2)CC1	MAP kinase-activated protein kinase 5 (MAPKAPK5, Homo sapiens, UniProt Q8IW41)	kinase activity, inhibitor		50 µM, added: PRAK peptide substrate		inhibition	-12%

A few entries again:
SMILES	target	test	system	conditions	how to read	quantity	value
Cc1nn(C)cc1-c1nc2c(N3CCN(Cc4ccc(Cl)cc4)CC3)c(Cl)cnc2[nH]1	Ankyrin repeat and protein kinase domain-containing protein 1 (ANKK1, Homo sapiens, UniProt Q8NFD2)	KINOMEscan		1 µM	baseline: DMSO control	remaining binding	89%
O=C1CC(C(=O)O)NC(=O)N1 (stereo not drawn)	Dihydroorotate dehydrogenase A (fumarate) (pyrDA, Lactococcus lactis subsp. cremoris, UniProt A2RJT9, L71F)	flavin reduction, stopped-flow	Lactococcus lactis	25 °C		kred	0.07 ± 0.001 s⁻¹
CC1(C)C(C=C(Cl)Cl)C1C(=O)OCc1cccc(Oc2ccccc2)c1 (stereo not drawn)	uncharacterized protein (Anopheles coluzzii, UniProt A0A6E8VQK1)	enzyme activity, inhibitor	Sf9 cell homogenate	24.7 µM, 0.1667 h, added: α-naphthyl acetate substrate	baseline: no inhibitor	remaining activity	96.7%
